Assay results from different studies.
Every numbered part comes from another study and shows a few of its results, in no order.

Series 1 — technique: RNA Bind-n-Seq; molecule type: RNA; sample: in vitro; concentration: 365 nM; reference: no-protein control; reading: higher = stronger binding; measurement: RBNS enrichment (R)
Target: RNA binding protein fox-1 homolog 2, RRM domain, GST-SBP tag (RBFOX2, Homo sapiens, UniProt O43251-10, residues 100-194)
Notes: natural RNA segment, single round, ends assumed
Target sequence (chain): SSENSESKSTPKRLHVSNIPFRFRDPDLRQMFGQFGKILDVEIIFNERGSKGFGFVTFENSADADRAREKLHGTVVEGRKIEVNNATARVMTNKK
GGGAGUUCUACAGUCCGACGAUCUUCCUGUUUUAUGUCUGUACCUCGUCCACCCCUCAGGUAAUACCUGCCUCUCACAGGUACAGCUGUUUCUUGGAAAUCCUCCAACCAAAUAGCAGUUUUCCUAACUUGAUUGGAAUUCUCGGGUGCCAA: 0.315
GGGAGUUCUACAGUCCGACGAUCGUUGAUACCUGAGCCUGCAAUAGAGCCCUGAAAUCAAGAGCAUGGCUUGAGUGUGUGAAUAUGAUGUGUGCACAUGCUUAAUGAGCGUGCAAGUGUGCACACGUUUGUGGUGGAAUUCUCGGGUGCCAA: 6.88
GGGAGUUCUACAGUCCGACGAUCAUUUUGGAAAUUGAAAAACUUAAUUUACAAGUGCUGGUACAUCUUUUUUCUUUUGUGGACCACAGGAAGGAAGAUUUAUUUUGAUAUUGAUACUUUAAAAGGACUUUAUAUGGAAUUCUCGGGUGCCAA: 0.337
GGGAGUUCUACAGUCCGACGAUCUUCAAGCUUUAGCGUGCAUCAGAAUCACCUGUAGGGCUUGUUAAAACACUAAUUGCUGGGCCUCAACCCAAAAGCCCCCAAAGUGGCACUUCUGAGUUCCUGCUGAUGUUUGGAAUUCUCGGGUGCCAA: 0.253
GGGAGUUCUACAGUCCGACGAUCAGUGGGACACCAAGGUAGAAAGGGAGUAAGAAUGGUUUUCCAGUGAGUUGAAUGUGCACACGUUUAUGAGAGGCCUUUGGGUGAGCUUUCUGCUCAUUCCUUGGUUUGUCUGGAAUUCUCGGGUGCCAA: 1.87
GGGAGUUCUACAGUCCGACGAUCCCUCACAGUUGAAAAUGUUCGGUCAUGAUUGCUUUUGAAACCAAAGGGGAAGGUACCGAUAUCAUUGAGCUAUUUAAAGUUGCCAGUUUGGGCUCCAGUAAUGCUUUCUGUGGAAUUCUCGGGUGCCAA: 0.442
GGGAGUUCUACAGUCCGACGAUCUGGCACUGUAAGGUGCUUGCUCCCCAAGACACAUCCUAAAAGGUGUUGUAAUGGUGAAAACGUCUUCCUUCUUUAUUGCCCCUUCUUAUUUAUGUGAACAACUGUUUGUCUGGAAUUCUCGGGUGCCAA: 0.464
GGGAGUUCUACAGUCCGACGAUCAGGCUCACAUGCACAGGAAUGCUACAUGAUGGCCAGCUGCUUCCCUCCUUGGUUAUCAUCCACUGCAGCUGCUAGUUAGAAAGGUUUGGAGGGAUGACUUUUAGUAAAUCUGGAAUUCUCGGGUGCCAA: 1.99
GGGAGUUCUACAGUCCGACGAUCGGAUAUCUUUUCGCCUCAGACAGCUCUUCGAUUGCUCAUACAGAACAAUUCUGCCGGUGCUGAAGUACCAAGAAUGUUUUCAUUUGCAUUUUCCUGGUUAAGAAAUCUGUUGGAAUUCUCGGGUGCCAA: 0.296
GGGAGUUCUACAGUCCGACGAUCUCAAGAACAUGUCAAAGGAGUGAGCAGGGCAGUAGCCCUGUAGGUUGCAUGGGUGUGUGUCGCUGUGCAGGCCUGCCUGGGCUACCAUCUCCACUCCCCAUGUCUCUGAGUGGAAUUCUCGGGUGCCAA: 0.826
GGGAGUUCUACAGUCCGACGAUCUUAUUUUGACAAAGGGGAACACUGACUUUCUGAAGGAUUCAGAAAGAACCUUAGUGAAAGGUUCUCAGUCUCUGAGAGUGGACCCUAAUUAACAUAAAGACCAUUCAUCAUGGAAUUCUCGGGUGCCAA: 0.3
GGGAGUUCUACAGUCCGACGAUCUCUGAUGCCAAGACAAAUAUUGGGAGCGAGCCUUCCUCACUAGCCAUGUCCAAAUAAUGAGCGUAUUUUCAUGUGGUCUUCACUGCAUUUGGUUUUGUUUCUGAUUUCAUUGGAAUUCUCGGGUGCCAA: 0.445

Series 2 — technique: competition protein-binding microarray; molecule type: double-stranded DNA, one strand shown; sample: in vitro; concentration: 2 µM; with: Cbf1 competitor, 0.05 µM; reading: higher = stronger binding; measurement: fluorescence intensity
Target: Phosphate system positive regulatory protein PHO4, full length, GST-tagged (PHO4, Saccharomyces cerevisiae, UniProt P07270, residues 1-312)
Notes: whole 60-bp probe, lowest competitor level
Target sequence (chain): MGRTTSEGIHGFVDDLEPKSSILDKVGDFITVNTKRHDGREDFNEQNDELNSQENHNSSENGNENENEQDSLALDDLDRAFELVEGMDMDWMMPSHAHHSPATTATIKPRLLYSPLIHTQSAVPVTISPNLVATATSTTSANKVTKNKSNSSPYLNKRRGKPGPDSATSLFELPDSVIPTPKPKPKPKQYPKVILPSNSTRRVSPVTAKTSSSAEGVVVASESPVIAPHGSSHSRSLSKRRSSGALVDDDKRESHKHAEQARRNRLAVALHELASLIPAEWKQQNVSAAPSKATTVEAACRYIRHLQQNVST
CTTCTGTAAATTTGTAGGGTGGGTGGACGCGCCCCGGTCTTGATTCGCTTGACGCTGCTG: 4910 a.u.
TGCGCAACAACTTGGGAAGTGGGTGTATGTCTAGAAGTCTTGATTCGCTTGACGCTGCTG: 4400 a.u.
TCTTTACGGGCAGATGCTGTCTCCACTATTAACTTGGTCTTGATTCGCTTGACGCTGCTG: 3840 a.u.
AGGATCTAAAACCATCACATGATGTTCTAGTGCGTCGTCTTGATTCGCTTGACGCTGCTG: 7120 a.u.
TTAGAGCTAAGAAAGCACGTGGTTACGATAATGAGGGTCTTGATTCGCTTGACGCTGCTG: 19600 a.u.
ACACCTGACTCGGACCATGTGGCTAAGTTTGTTTTGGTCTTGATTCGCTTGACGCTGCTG: 10300 a.u.
TGCGCAACAACTTGTCACTGGACTTTATGTCTAGAAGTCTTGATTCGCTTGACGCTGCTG: 2950 a.u.
GTCTTGTCTCATTGAACAGTGGGTGTCCCCACTTCAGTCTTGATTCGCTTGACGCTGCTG: 4630 a.u.
AAAGCGGTAATTTGCCCGGTGGGTGCAGATATCTATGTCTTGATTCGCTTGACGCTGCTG: 4050 a.u.
CTGGAGCTGTTTCCAAACGTGGCCGGGCAATTGAGCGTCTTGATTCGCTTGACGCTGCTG: 9380 a.u.
AAAGTTTTCAACCTCCACGTGTTCCTTAGTTTCCCTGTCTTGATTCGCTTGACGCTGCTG: 21300 a.u.
CGGCAATTGCTGAGCACCGTGCGATGTTATGATCGCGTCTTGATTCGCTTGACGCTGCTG: 7910 a.u.
TGCGCAACAACTTGGCAGGTGGGTGTATGTCTAGAAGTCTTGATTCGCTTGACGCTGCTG: 6360 a.u.
AAATTACTAAGTTGGGTAGTGGGTGACGCCGTATGAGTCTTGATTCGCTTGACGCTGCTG: 4080 a.u.
CTCAGGTCGATGAGTCTCGTGGCCGCAAAGCTGATGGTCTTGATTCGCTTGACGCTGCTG: 9840 a.u.
CTTTCCCGATCTTGGTGCGTGGGTGTAGCACATTTGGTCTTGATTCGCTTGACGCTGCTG: 9760 a.u.
TCAACCTGGGTTCGTCACGCAAGACTTGAAGATGATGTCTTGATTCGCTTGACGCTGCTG: 4870 a.u.
GTCTTGTCTCATTGCCTGGTGGGTGTCCCCACTTCAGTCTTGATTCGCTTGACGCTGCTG: 4610 a.u.
GATTTACAGGCCTGGCACGGCGATTGGCCATTACCTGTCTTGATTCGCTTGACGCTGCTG: 3970 a.u.
CATACCCAACCTTGCCATGTGGGTGAAGATATTTGTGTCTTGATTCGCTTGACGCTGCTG: 10100 a.u.
TTCATTTGTCACCGTCACGTGATGGCATTTAAGTACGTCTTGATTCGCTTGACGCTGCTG: 15600 a.u.
GAGCGCCATTGTACCCACGTGTAACTGGGGCGAAGGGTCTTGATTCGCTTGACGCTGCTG: 17100 a.u.
GCAATACTTATTTTTGAAGCCGGATCCCTAATTGCTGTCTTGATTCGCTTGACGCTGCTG: 2450 a.u.

Series 3 — technique: protein-binding microarray; molecule type: double-stranded DNA, one strand shown; sample: in vitro; concentration: 2200 nM top; notes: 60-bp whole probe; with: salmon DNA 0.4 mg/ml; reference: random background probes; reading: higher = stronger binding; measurement: fitted relative affinity; all sequences stand within: GCCTAGCAC … GTCTTGATTCGCTTGACGCTGCTG
Target: Interferon regulatory factor 7, full length, phosphomimetic (IRF7, Homo sapiens, UniProt Q92985, residues 1-503, S471D/S472D/S475D/S476D/S477D/S483D/S484D/S487D)
Construct (chain): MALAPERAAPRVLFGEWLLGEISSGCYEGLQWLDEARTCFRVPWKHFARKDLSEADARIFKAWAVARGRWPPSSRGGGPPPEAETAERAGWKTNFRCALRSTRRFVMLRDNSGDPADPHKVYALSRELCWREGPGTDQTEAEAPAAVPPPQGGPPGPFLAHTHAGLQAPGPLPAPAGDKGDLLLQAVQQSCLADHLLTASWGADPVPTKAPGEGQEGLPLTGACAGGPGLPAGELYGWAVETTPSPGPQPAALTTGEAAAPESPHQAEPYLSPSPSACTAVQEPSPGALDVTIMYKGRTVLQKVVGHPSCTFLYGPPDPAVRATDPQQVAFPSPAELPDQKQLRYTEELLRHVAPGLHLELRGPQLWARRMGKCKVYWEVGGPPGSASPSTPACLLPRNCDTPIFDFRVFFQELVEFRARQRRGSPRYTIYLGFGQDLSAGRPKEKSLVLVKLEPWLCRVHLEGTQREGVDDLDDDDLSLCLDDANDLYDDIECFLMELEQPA
GACGATTCCAGTTTCGATACGTGCTAG: 5.72 z-score
TTCGATCTCAGTATCGATTAGTGCTAG: 0.789 z-score
TTCTGAATGCCCTTCCATCACGTGCTA: 1.06 z-score
GACGGTATCGGAATGGGGACGTGCTAG: 0.159 z-score
GACGGTATCCTTATCTTGACGTGCTAG: 1.09 z-score
GTGTATATGTGATTAAAATAGTGCTAG: 0.451 z-score
TCAGGCTTCTATGTAGTACTGTGCTAG: 0.275 z-score
TCATTTCTCCTTTGTAAACTGTGCTAG: 3.27 z-score
TCATAACTCAAGATTCCTACTGTGCTA: 0.357 z-score
GACGATTTCAGTACCGAGACGTGCTAG: 0.692 z-score
TTAGATATTAGTTTCGATTAGTGCTAG: 6.46 z-score
TCAAAATTAGTGTTTGCCACTGTGCTA: -0.272 z-score
TTAGCTTTCGACTTTCGGTTAGTGCTA: 11.5 z-score
GACGTTATCGGGACTGGGGACGTGCTA: -0.37 z-score
TTAGGTATCGGACTGGGCTAGTGCTAG: -0.316 z-score
TCATTTTTTACTTCGGGACTGTGCTAG: 1.85 z-score
TGAGAACTGAGACTGGATTAGTGCTAG: -0.56 z-score

Series 4 — technique: protein binding microarray; molecule type: double-stranded DNA, one strand shown; sample: in vitro; concentration: not given; reference: not given; reading: higher = stronger binding; measurement: E-score
Target: Histone acetyltransferase KAT6A, both winged helices, GST fusion (KAT6A, Homo sapiens, UniProt Q92794, residues 1-181)
Notes: 8-mer, flanks averaged, mean of 2 arrays, mostly near background
Construct (chain): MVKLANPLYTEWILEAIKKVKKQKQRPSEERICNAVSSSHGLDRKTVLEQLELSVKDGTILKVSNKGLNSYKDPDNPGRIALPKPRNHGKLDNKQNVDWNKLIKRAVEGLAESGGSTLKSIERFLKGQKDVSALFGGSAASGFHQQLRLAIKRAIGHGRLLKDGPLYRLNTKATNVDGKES
ATCTCCAG: -0.207
ACTTAGGC: -0.148
CTACAATA: 0.0178
GAGTCTCA: -0.0772
ATCCGCTC: 0.218
AATGTTGA: -0.135
AACCTGAC: -0.1
CGACAAAC: 0.0464
GACGATAA: -0.0507
GAGCGCAC: 0.167
CTATCTTC: -0.15
AATAAGAT: -0.0632
ACGCCGCG: 0.349
GAAGACCA: -0.129
CGCTTCCG: 0.349
CGAAATAG: 0.0574
AGCAAGCA: -0.0823
CTCAATTC: -0.175
AAACGTGT: -0.00252
AGCCGTTG: 0.179
AGACCTTG: -0.0764
ATGTACAT: -0.0135
GATGACGC: 0.117

A few entries again (series 4):
ACGCCGCG: 0.349
GAAGACCA: -0.129
CGCTTCCG: 0.349
CGAAATAG: 0.0574
AGCAAGCA: -0.0823
